# Measured values gathered from unrelated publications.
# Compare with care: the assays were run in different laboratories. “And” joins repeats or separate records; there may be more than shown. ± gives the spread as reported.
# Sequence of UniProt Q007T0 (whole entry, looked up): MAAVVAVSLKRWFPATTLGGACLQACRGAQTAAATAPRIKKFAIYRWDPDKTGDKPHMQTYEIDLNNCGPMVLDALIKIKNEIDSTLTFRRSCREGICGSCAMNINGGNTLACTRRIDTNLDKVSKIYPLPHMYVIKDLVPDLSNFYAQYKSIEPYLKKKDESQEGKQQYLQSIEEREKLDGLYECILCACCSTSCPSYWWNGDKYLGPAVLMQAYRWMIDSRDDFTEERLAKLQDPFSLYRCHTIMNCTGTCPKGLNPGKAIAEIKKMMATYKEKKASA
# Sequence of UniProt A5GZW8 (whole entry, looked up): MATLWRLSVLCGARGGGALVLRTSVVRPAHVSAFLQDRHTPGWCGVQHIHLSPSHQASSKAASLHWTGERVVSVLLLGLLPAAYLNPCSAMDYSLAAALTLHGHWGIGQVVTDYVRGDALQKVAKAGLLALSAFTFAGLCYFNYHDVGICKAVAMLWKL
# Sequence of UniProt D0VWV4 (whole entry, looked up): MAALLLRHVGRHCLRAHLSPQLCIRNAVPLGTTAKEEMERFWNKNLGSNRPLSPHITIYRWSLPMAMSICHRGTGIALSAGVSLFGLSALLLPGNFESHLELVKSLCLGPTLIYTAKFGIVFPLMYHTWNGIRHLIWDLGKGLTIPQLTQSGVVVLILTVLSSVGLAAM
# Sequence of UniProt P10721 (whole entry, unmodified, looked up): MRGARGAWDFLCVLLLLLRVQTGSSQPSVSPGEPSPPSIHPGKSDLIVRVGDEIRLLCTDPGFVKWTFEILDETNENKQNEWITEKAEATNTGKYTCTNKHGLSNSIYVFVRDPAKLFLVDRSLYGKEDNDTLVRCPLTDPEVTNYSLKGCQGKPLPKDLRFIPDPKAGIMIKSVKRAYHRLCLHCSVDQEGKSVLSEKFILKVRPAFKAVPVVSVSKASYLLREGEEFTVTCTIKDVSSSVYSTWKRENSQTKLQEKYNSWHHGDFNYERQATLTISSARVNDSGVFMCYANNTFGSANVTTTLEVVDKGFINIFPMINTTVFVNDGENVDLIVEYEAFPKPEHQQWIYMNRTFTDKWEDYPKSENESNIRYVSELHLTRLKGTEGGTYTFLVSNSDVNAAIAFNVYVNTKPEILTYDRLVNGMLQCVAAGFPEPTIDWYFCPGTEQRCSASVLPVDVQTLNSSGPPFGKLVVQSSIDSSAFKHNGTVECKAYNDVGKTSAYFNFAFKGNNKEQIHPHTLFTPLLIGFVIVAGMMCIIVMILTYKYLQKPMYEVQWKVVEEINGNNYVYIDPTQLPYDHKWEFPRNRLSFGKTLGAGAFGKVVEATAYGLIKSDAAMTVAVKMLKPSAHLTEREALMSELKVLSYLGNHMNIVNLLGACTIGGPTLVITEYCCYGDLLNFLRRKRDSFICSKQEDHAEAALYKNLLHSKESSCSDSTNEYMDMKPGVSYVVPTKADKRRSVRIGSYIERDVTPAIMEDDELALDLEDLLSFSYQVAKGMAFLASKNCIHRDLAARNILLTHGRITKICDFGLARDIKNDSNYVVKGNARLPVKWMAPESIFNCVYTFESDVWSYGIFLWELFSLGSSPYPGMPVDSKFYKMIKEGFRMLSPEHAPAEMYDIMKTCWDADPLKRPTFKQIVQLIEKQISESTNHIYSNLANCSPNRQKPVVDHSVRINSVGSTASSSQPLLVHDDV
# Sequence of UniProt O14842 (whole entry, looked up): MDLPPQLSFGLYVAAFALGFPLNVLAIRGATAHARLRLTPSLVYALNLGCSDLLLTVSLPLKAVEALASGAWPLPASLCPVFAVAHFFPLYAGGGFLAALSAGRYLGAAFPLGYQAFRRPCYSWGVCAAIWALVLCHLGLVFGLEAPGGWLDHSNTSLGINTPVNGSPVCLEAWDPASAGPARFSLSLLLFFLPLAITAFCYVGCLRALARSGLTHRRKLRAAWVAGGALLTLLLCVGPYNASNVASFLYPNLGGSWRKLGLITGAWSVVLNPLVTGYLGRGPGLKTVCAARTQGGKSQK
# Sequence of UniProt P22303 (whole entry, looked up): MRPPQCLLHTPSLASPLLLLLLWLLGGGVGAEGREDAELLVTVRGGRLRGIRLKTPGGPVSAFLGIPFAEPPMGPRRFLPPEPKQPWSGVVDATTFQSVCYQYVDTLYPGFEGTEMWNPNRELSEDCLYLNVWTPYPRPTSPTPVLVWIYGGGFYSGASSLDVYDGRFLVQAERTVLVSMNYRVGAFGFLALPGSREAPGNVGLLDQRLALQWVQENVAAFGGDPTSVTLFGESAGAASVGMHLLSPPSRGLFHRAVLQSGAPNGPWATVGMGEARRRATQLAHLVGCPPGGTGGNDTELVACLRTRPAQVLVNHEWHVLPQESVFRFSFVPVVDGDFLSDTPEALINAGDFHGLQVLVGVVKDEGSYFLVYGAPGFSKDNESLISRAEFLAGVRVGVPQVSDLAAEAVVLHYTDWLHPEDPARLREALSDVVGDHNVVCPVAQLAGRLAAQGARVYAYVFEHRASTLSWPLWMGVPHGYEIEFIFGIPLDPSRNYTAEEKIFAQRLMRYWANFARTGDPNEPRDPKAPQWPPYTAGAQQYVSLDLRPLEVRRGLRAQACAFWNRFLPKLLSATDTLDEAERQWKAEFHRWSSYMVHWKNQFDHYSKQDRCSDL
# Sequence of UniProt Q9GZZ6 (whole entry, looked up): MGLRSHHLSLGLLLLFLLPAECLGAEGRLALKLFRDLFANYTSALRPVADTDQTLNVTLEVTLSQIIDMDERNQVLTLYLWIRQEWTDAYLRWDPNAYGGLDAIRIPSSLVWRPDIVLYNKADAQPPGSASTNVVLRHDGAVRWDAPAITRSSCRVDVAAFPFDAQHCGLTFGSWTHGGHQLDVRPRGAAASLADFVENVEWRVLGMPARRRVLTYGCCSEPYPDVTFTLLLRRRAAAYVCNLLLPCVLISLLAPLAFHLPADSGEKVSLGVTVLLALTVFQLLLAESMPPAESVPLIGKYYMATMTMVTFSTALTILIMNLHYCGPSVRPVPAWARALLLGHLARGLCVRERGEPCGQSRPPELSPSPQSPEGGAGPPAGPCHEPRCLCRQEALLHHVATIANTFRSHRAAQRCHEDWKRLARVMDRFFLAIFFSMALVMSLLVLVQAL
# Sequence of UniProt O43684 (whole entry, looked up): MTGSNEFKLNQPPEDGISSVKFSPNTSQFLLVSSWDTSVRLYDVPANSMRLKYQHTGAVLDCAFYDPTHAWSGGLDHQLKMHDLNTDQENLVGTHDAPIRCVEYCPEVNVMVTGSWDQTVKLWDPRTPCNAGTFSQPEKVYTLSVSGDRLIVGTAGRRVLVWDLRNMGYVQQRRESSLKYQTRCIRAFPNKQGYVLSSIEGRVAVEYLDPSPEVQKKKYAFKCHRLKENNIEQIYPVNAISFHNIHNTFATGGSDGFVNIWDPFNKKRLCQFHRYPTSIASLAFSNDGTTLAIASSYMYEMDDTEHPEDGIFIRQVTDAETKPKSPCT
# Sequence of UniProt Q9NUJ1 (whole entry, looked up): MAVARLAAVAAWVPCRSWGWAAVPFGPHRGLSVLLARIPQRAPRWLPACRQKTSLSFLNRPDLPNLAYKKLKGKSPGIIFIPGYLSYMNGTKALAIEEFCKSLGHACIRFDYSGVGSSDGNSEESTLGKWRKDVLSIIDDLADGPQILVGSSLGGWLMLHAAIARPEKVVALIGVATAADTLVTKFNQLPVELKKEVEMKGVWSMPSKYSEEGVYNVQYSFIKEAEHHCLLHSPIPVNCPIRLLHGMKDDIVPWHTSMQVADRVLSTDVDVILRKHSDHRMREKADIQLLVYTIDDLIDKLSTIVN
# Sequence of UniProt Q9H3Y6 (whole entry, looked up): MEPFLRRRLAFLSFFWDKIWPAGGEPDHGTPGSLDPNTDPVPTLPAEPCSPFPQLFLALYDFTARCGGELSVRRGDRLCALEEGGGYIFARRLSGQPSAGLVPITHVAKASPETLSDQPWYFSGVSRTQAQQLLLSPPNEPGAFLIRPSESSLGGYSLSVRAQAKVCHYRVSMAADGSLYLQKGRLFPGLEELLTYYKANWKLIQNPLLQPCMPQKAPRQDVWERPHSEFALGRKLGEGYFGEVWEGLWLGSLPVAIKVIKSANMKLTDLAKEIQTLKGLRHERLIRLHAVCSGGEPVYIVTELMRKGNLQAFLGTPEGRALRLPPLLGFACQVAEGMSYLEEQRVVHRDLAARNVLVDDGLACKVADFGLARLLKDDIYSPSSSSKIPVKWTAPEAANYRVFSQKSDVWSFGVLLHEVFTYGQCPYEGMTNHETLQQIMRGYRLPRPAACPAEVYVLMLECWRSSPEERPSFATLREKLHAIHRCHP
# Sequence of UniProt Q9UGM1 (whole entry, looked up): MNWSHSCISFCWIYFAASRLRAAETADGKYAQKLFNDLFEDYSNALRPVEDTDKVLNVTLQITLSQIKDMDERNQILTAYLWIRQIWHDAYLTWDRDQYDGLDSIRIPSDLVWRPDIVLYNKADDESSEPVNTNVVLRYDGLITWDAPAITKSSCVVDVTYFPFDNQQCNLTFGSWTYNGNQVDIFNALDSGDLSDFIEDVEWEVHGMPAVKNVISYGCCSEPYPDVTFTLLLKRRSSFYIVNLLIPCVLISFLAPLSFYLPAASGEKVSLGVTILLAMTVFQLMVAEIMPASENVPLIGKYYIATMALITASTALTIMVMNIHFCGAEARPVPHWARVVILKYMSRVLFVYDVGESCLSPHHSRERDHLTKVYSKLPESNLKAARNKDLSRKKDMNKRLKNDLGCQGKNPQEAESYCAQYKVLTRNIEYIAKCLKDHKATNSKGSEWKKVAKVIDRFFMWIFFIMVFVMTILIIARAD
Compound,target,assay,system,setting,scale,measurement,value
C[C@H]1CN(c2n[nH]c3nc(N[C@H]4CC[C@H](NS(=O)(=O)CCC(F)(F)F)CC4)ncc23)CCO1,"Mitotic checkpoint protein BUB3 (Homo sapiens, UniProt O43684)","binding, Kinobeads competition, measured: BUB3",,,,Hill coefficient,1
C=C(CN(C(=O)c1c(C(F)F)nn(C)c1F)C1CC1)c1ccc(Cl)cc1Cl,"SDHD/SDHC/SDHB (Sus scrofa, UniProt A5GZW8+D0VWV4+Q007T0)","enzyme activity, inhibitor, DCIP reduction",pig,"0.06 µM, together with: DCIP 80 µM",,reaction velocity,0.021 µM/s and 0.0202 µM/s
C[N+](C)(C)[C@@H](Cc1c[nH]c(=S)[nH]1)C(=O)[O-],"Ergothioneine transport permease/ergothioneine binding protein EgtU, substrate-binding domain (egtU, Helicobacter pylori, UniProt B5Z7I3, S297F)",ITC,,"concentration not given, 30 °C, substrate-binding domain",,binding stoichiometry,1 ± 0.042
[2H]c1c([2H])c([C@]2([2H])CCCN2C(=O)C(C)(C)Oc2ccc3cn[nH]c3c2)c([2H])c([2H])c1C([2H])([2H])[2H],"Tyrosine-protein kinase Srms (SRMS, Homo sapiens, UniProt Q9H3Y6)",KINOMEscan,,1 µM,baseline: DMSO control,remaining binding,73%
COc1cc(Nc2ncc(F)c(Nc3ccc4c(n3)NC(=O)C(C)(C)O4)n2)cc(OC)c1OC,"Insulin-like growth factor 1 receptor (IGF1R, Homo sapiens, UniProt P08069)",KINOMEscan,,10 µM,,inhibition,81%
CN1CCN(c2cc(-c3ccncc3)c(-c3ccc4ccccc4c3)nn2)CC1,"Free fatty acid receptor 1 (FFAR1, Homo sapiens, UniProt O14842)","agonist, FLIPR",,12.5 µM,,activation,10.4%
CCn1c(-c2ccccc2)cc2nnc3ccccc3c21,"Dihydroorotate dehydrogenase (quinone), mitochondrial (PFF0160c, Plasmodium falciparum, UniProt Q08210, E182D)","enzyme activity, DCIP colorimetric",,,baseline: E182D mutant over wild type,IC50 ratio,1.1
Nc1ncc(-c2nc(N3CCOCC3)nc(N3CCOCC3)n2)c(C(F)F)n1,"Mast/stem cell growth factor receptor Kit (KIT, Homo sapiens, UniProt P10721, T670I/V559D)",KINOMEscan,,10 µM,,remaining binding,26%
O=C(Nc1cccnn1)N1CCC(=Cc2cccc(Oc3ccc(C(F)(F)F)cn3)c2)CC1,atrial natriuretic factor receptor,,,concentration not given,,inhibition,-4%
CC(C)[C@@H](O)CC[C@@H](C)[C@H]1CC[C@H]2[C@@H]3CC=C4C[C@@H](O)CC[C@]4(C)[C@H]3CC[C@]12C,"Glutamate NMDA receptor; GRIN1/GRIN2B (GRIN1/GRIN2B, Homo sapiens, UniProt Q05586+Q13224, L655Y)","positive allosteric modulator, two-electrode voltage clamp",Xenopus oocytes expressing GluN1-L655Y,"10 µM, 0.02% cremophor, together with: 100 µM glutamate and glycine",baseline: without compound,current response,153 ± 3.4%
COc1ccc2[nH]c3c(c2c1)CCN(C)CC3.Cl,"Neuronal acetylcholine receptor; alpha9/alpha10 (Homo sapiens, UniProt Q9GZZ6+Q9UGM1)","ion current, inhibitor, two-electrode voltage clamp",Xenopus laevis oocytes,together with: 6 µM acetylcholine,,Hill coefficient,1.8 ± 0.2
O=C(c1ccc(Cl)cc1)N1CCN2C(=O)N(OC(=O)N3CCOc4ccccc43)C(=O)C2C1 (stereo not drawn),"Palmitoyl-protein thioesterase ABHD10, mitochondrial (Homo sapiens, UniProt Q9NUJ1)","enzyme activity, inhibitor, MS-based ABPP",SW-620 conditioned medium,"10 µM, 1 h, 37 °C","baseline: compound over DMSO, lower = stronger inhibition",median ratio,0.99
Nc1ncnc2c1ncn2[C@@H]1O[C@H](COP(=O)(O)OP(=O)(O)OP(=O)(O)O)[C@@H](O)[C@H]1O,"dnaK (Escherichia coli, UniProt P0A6Y8, E213C/T22C)","conformational change, inducer, stopped-flow fluorescence quenching",,"linker insertion, medium phase",,rate constant,205 s⁻¹
CC[N+](CC)(CC)CCOC(=O)C(C1CCCC1)C1CCCC1,"Acetylcholinesterase (ACHE, Homo sapiens, UniProt P22303)",,biochemical,concentration not given,,activity class,inactive
COc1ccc(N2C(=O)N(c3c(C)cccc3Cl)Cc3cnc(Nc4ccc(C5CCN(C)CC5)cc4OC)nc32)nc1,"Serine/threonine-protein kinase PLK2 (PLK2, Homo sapiens, UniProt Q9NYY3)",kinase activity,,0.5 µM,,inhibition,12%

# A few entries again:
Compound,target,assay,system,setting,scale,measurement,value
Nc1ncnc2c1ncn2[C@@H]1O[C@H](COP(=O)(O)OP(=O)(O)OP(=O)(O)O)[C@@H](O)[C@H]1O,"dnaK (Escherichia coli, UniProt P0A6Y8, E213C/T22C)","conformational change, inducer, stopped-flow fluorescence quenching",,"linker insertion, medium phase",,rate constant,205 s⁻¹
